Experimental data pooled from the literature.
Each line is one published result; not all experiments were run side by side. Values joined by “and” are separate records of one study, mostly repeats; a detail may differ. Numbers after ± are the reported error.
UCHL1: Ubiquitin carboxyl-terminal hydrolase isozyme L1 (UCHL1, Homo sapiens, UniProt P09936)
UniProt P09936, sequence (whole entry, looked up): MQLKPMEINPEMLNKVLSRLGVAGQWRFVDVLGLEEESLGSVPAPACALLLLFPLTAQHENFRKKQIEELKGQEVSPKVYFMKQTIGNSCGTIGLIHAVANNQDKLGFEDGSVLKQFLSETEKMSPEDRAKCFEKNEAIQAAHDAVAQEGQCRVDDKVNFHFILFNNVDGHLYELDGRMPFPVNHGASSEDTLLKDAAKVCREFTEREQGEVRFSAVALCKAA

COc1cc2c(CCNC(C)=O)c[nH]c2cc1O  specific activity (sulfation, substrate; pooled human lung cytosol; 50 µM, 30 min, together with: 50 mM NaF): 18 ± 2.18 pmol/min/mg
O=C1Cc2cc(CCN3CCN(c4nsc5ccccc45)CC3)c(Cl)cc2N1  mean blood pressure (male Hartley guinea pigs, anaesthetized; intravenous, 0.1 mg/kg group, baseline before infusion): 35 ± 0.2 mmHg
CC(C)c1nc(N(C)S(C)(=O)=O)nc(-c2ccc(F)cc2)c1/C=C/[C@@H](O)C[C@@H](O)CC(=O)O  Tlast (human, plasma; oral, 10 mg, median, range, alone): 72 h
Cc1cccc(CNC(=O)c2cn(CCNC(=O)c3ccccc3Sc3c([N+](=O)[O-])ncn3C)c3cc4c(cc3c2=O)OC(F)(F)O4)n1  C0 (Sprague-Dawley rat, male, plasma; intravenous, 5 mg/kg): 1460 ± 94.7 ng/mL
O=C(O)CCCOc1ccc([18F])cc1-c1cc(-c2ccccc2C(F)(F)F)n(-c2ccccc2)n1  radioactivity uptake (gamma counting; male ddY mice, bone; intravenous, 2.1 MBq, 30 min): 0.98 ± 0.17 SUV
C=CC(=O)Nc1cc(Nc2nccc(-c3cn(C)c4ccccc34)n2)c(OC)cc1N(C)CCN(C)C  CLss/F (human patients; oral, cycle 3 day 1, safety run-in, mean, together with: pemetrexed + carboplatin): 17.1 L/h
COc1cc(N2CCC3(CCN(C)CC3)CC2)ccc1Nc1ncc(Cl)c(Nc2ccccc2P(C)(C)=O)n1  Q/F (population PK model; human; oral, bootstrap median): 15.5 L/h
O=C(O)CC[C@H](NC(=O)N[C@@H](CCCCNC(=O)[C@H](Cc1ccc2ccccc2c1)NC(=O)CCCCCNC(=O)CN1CCN(CC(=O)O)CCN(CC(=O)O)CCN(CC(=O)O)CC1)C(=O)O)C(=O)O [gallium-68 labelled]  tissue uptake (gamma counting; mouse, 22Rv1 xenograft, blood; intravenous, 3.7 MBq, 2 h): 6.87 ± 1.57 %ID/g
CCN1/C(=C/C(C)=O)Sc2ccc(F)cc21  QTc interval (Bazett) (cynomolgus monkey; oral, 30 mg/kg, 1 h post-dose): 328 ± 18 ms
Cc1cc(Nc2cc3ncccc3c(N[C@@H]3C[C@H]4CC[C@@H](C3)N4CCC#N)n2)n[nH]1  papular rash incidence (healthy human subjects; oral, 30 mg, 2 weeks, single ascending dose): 0%
COc1cc2[nH]c(C)c(-c3c(C)noc3C)c(=O)c2cc1Cl  Papp (PAMPA; pH 7.4): 24 ×10⁻⁶ cm/s
O=C1c2ccncc2C(=O)c2c1[nH]c1ccccc21  plasma clearance (Sprague-Dawley rat, male, plasma; intravenous, 1 mg/kg): 23.9 ± 11.2 mL/min
O=C(O)CNC(=O)c1nc(Cl)c2ccccc2c1O  pKa (basic): < 2
COCc1cc(C(=O)Nc2cc([C@H]3CC[C@@H](OC(=O)NC(C)C)C3)[nH]n2)n(C)n1  unbound Cmax (OVCAR-3 xenograft, NOD/SCID gamma mice, plasma; oral, 50 twice daily, PK/PD study): 1120 nM
N#Cc1ccc2c(c1)[C@H]1CCCN(C(=O)c3ccc4[nH]cnc4c3)[C@H]1C2  DHEA-S level (human, female; 160 mg, day 7): 4.4 µmol/L
CC(C)n1c(Nc2cccnc2)nc2cnc(Nc3ccc(N4CCN(C)CC4)cc3)nc21  subjects with adverse event (measured: diastolic blood pressure increased; healthy male subjects; oral, 100 mg, study, together with: gemfibrozil): 7.1%
CO[C@@H]1[C@H](OC(=O)N2CC(CCN3CCOCC3)C2)CC[C@]2(CO2)[C@H]1[C@@]1(C)O[C@@H]1CC=C(C)C  prothrombin time (humans; subcutaneous, 0.2 mg twice weekly for 4 weeks, day 28; relative to: baseline): 0 ± 0.4 s
CCCCc1oc2ccccc2c1C(=O)c1cc(I)c(OCCN(CC)CC)c(I)c1  mean blood pressure (male Hartley guinea pigs, anaesthetized; intravenous, 10 mg/kg over 10 min, after infusion): 30 ± 0.2 mmHg
CC(C)Nc1ccnc(Nc2cccc(-c3cccnc3)c2)n1  Papp (A to B) (MDCKII-WT cells; 10 µM, pH 7.4): 75 ± 39.1 ×10⁻⁶ cm/s
Cc1ccc(C(=O)N(CCCN)C(c2nc3snc(C)c3c(=O)n2Cc2ccccc2)C(C)C)cc1 (stereo not shown)  patients with adverse event (stomatitis grade ≥3 (CTCAE); human patients; intravenous, 7 mg/day): 0%
Oc1ccc(/C=C/c2cc(O)cc(O)c2)cc1  leucine aminopeptidase (rat, azoxymethane-injected, blood at sacrifice; 100 mg/kg): 44 IU/L and 40 IU/L and 45 IU/L
Cc1ccc(O)c(-n2nc3ccccc3n2)c1  daily dermal exposure dose (human aged 11-16 years; concentration not given, spray sunscreen, mean): 774 ng/kg/day
Cc1ccc(Sc2ccccc2N2CCNCC2)c(C)c1  vomiting incidence (healthy adult men; oral, 20 mg single dose, treatment-emergent adverse events): 0%
CNC(=O)c1cc(Oc2ccc(NC(=O)Nc3cc(C(C)(C)C)nn3-c3ccc4ncccc4c3)c(F)c2)ccn1  patients with any AE of special interest (human; oral, dose not given, cycles 1 and 2, High Cmax subgroup): 89%
Cc1cc(C(=O)NC(C)(C)COc2cccc3c2C(N)=NS(=O)(=O)N3)cc(C)n1  plasma peak area (LC-MS metabolite profiling; Sprague-Dawley rat, both sexes, plasma; oral, 100 mg/kg of parent drug, 0.25 (unit not given); higher = more metabolite): 6.94e+06 a.u.
CC(C)(C(=O)N1CCOc2c(C#N)cncc2C1)C(F)F  subjects with TEAE (measured: gingival bleeding; human, both sexes; oral, 15 mg twice daily, 14 days, multiple ascending dose): 0%
COc1ccc(C[C@@H](C)[C@@H](C)Cc2ccc(OC)c(OC)c2)cc1OC  Tmax (beagle dog male, plasma; oral, 1000 mg/kg/day, day 1, median): 4 h
COc1cc2[nH]c(C)c(-c3cncnc3)c(=O)c2cc1Cl  Papp (PAMPA; pH 7.4): 11 ×10⁻⁶ cm/s
Cc1ccccc1NC(=O)C(C#N)=Cc1ccc2c(c1)OCCO2  labelling (UCHL1; covalent, intact protein LC-MS; 12.5 µM): 10.4%
CCC(CC)C(=O)Oc1cccc(C(O)CCN)c1.O=CO (stereo not shown)  ERG b-wave amplitude (scotopic ERG; BALB/cJ mice; intraperitoneal, 10 mg/kg, 0.5 h dark adaptation, together with: 10,000 lx photobleach, 10 min): 0 µV
CNCCOC12CC3(C)CC(C)(CC(Cn4ncc(-c5ccc(N6CCc7cccc(C(=O)Nc8nc9ccccc9s8)c7C6)nc5C(=O)O)c4C)(C3)C1)C2  QTcV interval change (beagle dog, male, anaesthetised; intravenous bolus, 0.03 mg/kg, 15 min; relative to: baseline): 0 ms
C=CC(=O)N1CCC[C@@H](n2nc(-c3ccc(Oc4ccccc4)cc3)c3c(N)ncnc32)C1  tapped density: 0.61 g/mL
CNC(=O)c1ccc(-c2cnc3ncc(Cc4ccc5ncccc5c4)n3n2)cc1F  alkaline phosphatase increase incidence (all grades) (CTCAE v4.0, any causality; human cancer patients; oral, 600 mg twice daily, expansion, other tumours, RP2D): 0%
Cn1cc(-c2cn3nccc3c(-c3cnn([C@]4(CC#N)C[C@@H](C#N)C4)c3)n2)cn1  mean residence time (healthy humans fasted, plasma; 3 mg single dose, geometric mean): 5.6 h
CNC(=O)c1ccc(-c2cnc3ncc(Cc4ccc5ncccc5c4)n3n2)cc1F  Pancreatitis patients (Japanese patients; oral, 400 mg twice daily, grade 3/4): 6%
O=C(C[n+]1cc(-c2ccc(Cl)cc2)n2c1CCC2)Nc1ccc(Cl)c(Cl)c1  maximum haemolysis (sheep erythrocytes; 1 h, pH 7.5): 15.3%
CCC(C)n1ncn(-c2ccc(N3CCN(c4ccc(OCC5COC(Cn6cncn6)(c6ccc(Cl)cc6Cl)O5)cc4)CC3)cc2)c1=O (stereo not shown)  adverse event incidence (measured: total protein decreased; healthy human participants; oral, 200 mg, compound alone cohort): 7%
Cc1cc(-c2nccc3c2ccn3CC(=O)Nc2ccc(-c3cnccn3)cn2)ccn1  application site scab incidence (healthy human volunteers; oral, 7 mg single dose, single ascending dose): 16.7%
CC(C)[C@@H](CS(=O)(=O)C(C)C)N1C(=O)[C@@](C)(CC(=O)O)C[C@H](c2cccc(Cl)c2)[C@H]1c1ccc(Cl)cc1  AUC(0-inf) (FVB mice Abcb1a/b knockout, plasma; intravenous, 20 mg/kg): 37100 ± 2780 ng·h/mL
O=C(Nc1nc2cccc(-c3ccc(CN4CCS(=O)(=O)CC4)cc3)n2n1)C1CC1  treatment-emergent adverse events (measured: arthralgia; human rheumatoid arthritis patients; oral, 30 mg once daily, 4 weeks, regardless of relatedness): 0%
Cl.[2H]C([2H])([2H])CC(=O)c1cnc(NC(=O)C2CC2)cc1Nc1cccc(-c2ncn(C([2H])([2H])[2H])n2)c1OC  CL/F (geometric mean; human; 10 mg once daily, day 7, fasted, liquid, multiple dose): 10.9 L/h
O=C(CCl)Nc1nc2ccc([N+](=O)[O-])cc2s1  labelling (UCHL1; covalent, intact protein LC-MS; 12.5 µM): 64.7%
FC(F)(F)c1ccc(CNc2ccc(Cc3c[nH]c4ncc(Cl)cc34)cn2)cn1  adverse event incidence (measured: Constipation; patients with advanced solid tumours; oral, dose not given, grade 1 and 2, possibly related to drug): 11%
COc1ccc2c3c([nH]c2c1)[C@H](CC(C)C)N1C(=O)[C@H](CC(=O)NC(C)C)NC(=O)[C@@H]1C3  spleen to body weight ratio (wild-type mouse; oral, 100 mg/kg daily, 23 days): 0.28% and 0.29%
Cc1c(Cl)c(C)[n+]([O-])c(Cl)c1-c1noc(-c2cc(O)c(O)c([N+](=O)[O-])c2)n1  adverse drug reaction incidence (measured: Hyperhidrosis; healthy Caucasian subjects; oral, 25 mg, 4 days): 0%
COc1cc2c3c(n(CCCN4CCOCC4)c(=O)c2cc1OC)-c1cc2c(cc1C3=O)OCO2  CL (beagle dog, female, plasma; intravenous infusion, 430 mg/m^2, 1 h infusion): 48 L/h/m² and 33 L/h/m²
C[C@@H](N)C1CCN(S(=O)(=O)c2cccc3cnccc23)CC1  participants with limb abscess (healthy volunteers; 75 mg, fasted): 0%
CC(=O)N[C@@H](CS)C(=O)O  permeability-surface area product (human; intravenous): 7.52 to 20.1 mL/s/mL
Cc1cc(NC2CCN(C(=O)OC3CCN(C(=O)/C=C/CN(C)C)C3)CC2)n2ncc(C(C)C)c2n1 (stereo not shown)  patients with TEAE (CTCAE v4.0, measured: Anemia; patients with advanced solid tumours; oral, dose not given, all schedules, grade 3 or higher): 9%
CC(C)[C@@H]1CC[C@@H](C)C[C@@H]1O  mean erythrocyte fragility (osmotic fragility; human erythrocytes; 10 µM): 0.65%
C=CC(=O)NC1CCN(c2ncc3ncnc(Nc4ccc(Oc5ccc6c(c5)ncn6C)c(C)c4)c3n2)CC1  participants with erythema (human, male; oral, 240 mg, treatment-emergent adverse event): 6.3%
Cn1c(C(F)(F)F)cc(=O)n(-c2cc(Oc3cccnc3OCC(=O)O)c(Cl)cc2F)c1=O  Tmax (beagle dog, female, plasma; oral capsule, 1000 mg/kg/day epyrifenacil, week 13, 90-day study): 3.5 h
CCc1cc(C(=O)NC)c2nccc(N3CCc4c(cc(Cn5ccnc5)cc4-c4cn(C)nc4C(F)(F)F)C3=O)c2c1  change in clinical chemistry or haematology parameter (measured: TP; Sprague Dawley rat; oral, 50 mg/kg once daily, 7 days; relative to: vehicle): -4.7%
C=CC1(C)CC(OC(=O)CSCCCCCN(C)C)C2(C)C(C)CCC3(CCC(=O)C32)C(C)C1O (stereo not shown)  maximum haemolysis (sheep erythrocytes; 1 h, pH 7.5): 2.59%
CC(C)NCC(O)COc1cccc2ccccc12 (stereo not shown)  mean blood pressure (male Hartley guinea pigs, anaesthetized; intravenous, 1 mg/kg group, baseline before infusion): 37 ± 0.1 mmHg
N#C[C@@]12C[C@@H]1[C@@H](n1cnc3c(N[C@@H](C4CCC4)C4CC4)nc(I)nc31)[C@H](O)[C@@H]2O  Vd (Wistar rat, male, plasma; oral, 10.0 mg/kg): 72.2 L/kg
Cc1nc(-c2ccc(OCC(C)C)c(C#N)c2)sc1C(=O)O  subjects with hypertriglyceridaemia (healthy Chinese subjects; oral, 40 mg, fed): 5%
CCCc1nc2c(C)cc(-c3nc4ccccc4n3C)cc2n1Cc1ccc(-c2ccccc2C(=O)O)cc1  pKa (basic): 5.8
CC(C)c1nc(N(C)S(C)(=O)=O)nc(-c2ccc(F)cc2)c1/C=C/[C@@H](O)C[C@@H](O)CC(=O)O  plasma concentration (Wistar albino rat, both sexes, plasma; oral, 20 mg/kg, 48 h): 60.8 ng/mL
O=C(CCCCCCC(=O)Nc1ccc(CC[18F])cc1)NO  tissue uptake (athymic nu/nu male mice, LNCaP xenograft, lungs; intravenous, 1 h): 2.4 ± 0.5 %ID/g
O=C(O)CCC(=O)O.[2H]C([2H])([2H])Oc1cc(C)c2[nH]ccc2c1CN1CC[C@@H](C2CC2)C[C@H]1c1ccc(C(=O)O)cc1  subjects with proteinuria TEAE (multiple ascending dose; healthy Chinese subjects; 100 mg twice daily): 37.5%

For quick reference, copied from above:
CNC(=O)c1ccc(-c2cnc3ncc(Cc4ccc5ncccc5c4)n3n2)cc1F  Pancreatitis patients (Japanese patients; oral, 400 mg twice daily, grade 3/4): 6%
CNC(=O)c1cc(Oc2ccc(NC(=O)Nc3cc(C(C)(C)C)nn3-c3ccc4ncccc4c3)c(F)c2)ccn1  patients with any AE of special interest (human; oral, dose not given, cycles 1 and 2, High Cmax subgroup): 89%
FC(F)(F)c1ccc(CNc2ccc(Cc3c[nH]c4ncc(Cl)cc34)cn2)cn1  adverse event incidence (measured: Constipation; patients with advanced solid tumours; oral, dose not given, grade 1 and 2, possibly related to drug): 11%
